{"data": "Published values of several laboratories", "cell line": "MIA PaCa-2", "note": "Compare with care: the assays were run in different laboratories. pEC50, pIC50: −log10 of the molar value."}
{"Compound": "C=CC(=O)N1CC2C(=O)N(CCN(C)C)c3c(c4cc(Cl)c(-c5c(O)cccc5F)nc4n(-c4c(C)ccnc4C(C)C)c3=O)N2CC1C (stereo not shown)", "test": "cell growth or viability", "quantity": "pIC50", "value": 8.16}
{"Compound": "COC1CCC(Nc2nc(-c3nccn3C)nc3sc(-c4ccn(C)n4)c(-c4ccccc4)c23)C1 (stereo not shown)", "test": "cAMP-Glo", "setting": "1.0 µM, 1 h, together with: isoprenaline 15 min", "quantity": "cAMP level", "value": "no effect"}
{"Compound": "COc1ccc(C([O-])=CC(=O)c2ccc(C(C)(C)C)cc2)cc1.[Ru+2].c1ccc(-c2cccc(-c3ccccn3)n2)nc1.c1cnccn1", "scale": "baseline: dark IC50 over light IC50", "quantity": "phototoxicity index", "value": 3.4}
{"Compound": "CC(C)(C)C(=O)OCOP(=O)(C/C=C\\Cn1c[n+](Cc2cn3cc(Cl)ccc3n2)c2c(=O)[nH]c(N)nc21)OCOC(=O)C(C)(C)C", "test": "cell growth or viability, ATP luminescence", "setting": "48 h", "quantity": "pEC50", "value": "< 4.10"}
{"Compound": "Cc1c(Cl)c(=O)oc2cc(OCCCCCCSC#N)ccc12", "test": "cell growth or viability, SRB", "quantity": "GI50", "value": "7.2 µM"}
{"Compound": "CC(C)(C)C(=O)OCOP(=O)(C/C=C\\Cn1c[n+](Cc2cc3cc(Cl)ccc3o2)c2c(=O)[nH]c(N)nc21)OCOC(=O)C(C)(C)C", "test": "cell growth or viability, ATP luminescence", "setting": "48 h", "quantity": "pEC50", "value": 4.53}
{"Compound": "CCN(C(=O)c1cc(F)ccc1Oc1nncnc1N1CCC2(C1)CN([C@H](CCCN(C)CCOC)C(C)C)C2)C(C)C", "test": "cell growth or viability", "setting": "72 h", "quantity": "GI50", "value": "> 10 µM"}
{"Compound": "CC(C)c1ccc(N(C)c2ccc3c(c2)OCC[C@H]3CNc2cnccc2C(=O)O)cc1", "test": "cell growth or viability, ATP luminescence", "setting": "7 days", "quantity": "pIC50", "value": 8.15}
{"Compound": "Cn1ncc(-c2ccc3c(=O)[nH]nc(CN)c3c2)c1-c1c(F)c(Cl)cc(OC2CC2)c1C#N", "test": "cell viability, inhibitor, CellTiter-Glo", "setting": "120 h", "quantity": "pIC50", "value": 7.15}
{"Compound": "CC(C)(C)C(=O)OCOP(=O)(C/C=C\\Cn1c[n+](Cc2cc3cc(Cl)ccc3[nH]2)c2c(=O)[nH]c(N)nc21)OCOC(=O)C(C)(C)C", "test": "cell growth, inhibitor, CellTiter-Glo", "setting": "48 h", "quantity": "pEC50", "value": 4.17}
{"Compound": "COc1cc(S(=O)(=O)Oc2ccc3[nH]c(C)cc3c2)cc(OC)c1OC", "test": "cell growth or viability, fluorescence", "setting": "5 days", "quantity": "pIC50", "value": 8.00}
{"Compound": "N#CSCCCCCCOc1ccc2c(-c3ccccc3)cc(=O)oc2c1", "test": "cell growth or viability, SRB", "quantity": "GI50", "value": "19 µM"}
{"Compound": "COc1ccc(C(O)=CC(=O)c2ccc(C(C)(C)C)cc2)cc1.[Ru+2].c1ccc(-c2ccccn2)nc1.c1ccc(-c2ccccn2)nc1", "test": "cytotoxicity", "setting": "dark", "quantity": "pIC50", "value": 7.17}
{"note": "Some of these lines once more:"}
{"Compound": "COc1ccc(C([O-])=CC(=O)c2ccc(C(C)(C)C)cc2)cc1.[Ru+2].c1ccc(-c2cccc(-c3ccccn3)n2)nc1.c1cnccn1", "scale": "baseline: dark IC50 over light IC50", "quantity": "phototoxicity index", "value": 3.4}
